Measured values pooled from the literature.
Lines come from different studies, so protocols differ. Several values in a cell are separate wells, animals, samples, runs or records. ± marks the error that the study gave.
Cell line: MCF7

Substance	assay	setting	how to read	measurement	value
COc1cc(-c2noc(-c3cccs3)c2C(F)(F)F)cc(OC)c1OC	PI flow cytometry	IC50, 48 h		cells in G2/M-phase	34.8%
Cc1c(C)c2c(c(C)c1OCc1ccccc1)CCC(C)(C(=O)NN=C1C(=O)Nc3ccc(Br)cc31)O2 (stereo not shown)	cell growth or viability, SRB	48 h		GI50	76.6 µM
CCN1C(=O)/C(=C\c2ccc(F)cc2)S/C1=N/N=C(\C)c1ccccn1	cell growth, SRB	100 µg/mL, 48 h		inhibition	> 70%
CC(=NNC(=S)NN=C(C(=NO)c1ccccc1)c1ccccc1)c1ccccc1C	Western blot, item: NF-κB p65	IC50 concentration, 24 h	baseline: untreated	relative protein level	0.72 ± 0.05
COc1c(C)c(C)c2c(c1C)CCC(C)(C(=O)NN=C1C(=O)Nc3cc(Cl)ccc31)O2 (stereo not shown)	cell growth or viability, SRB	48 h		GI50	38.2 µM
CCCCCCCCCCCCCCCC(=O)N[C@H](C(=O)N[C@@H](Cc1c[nH]cn1)C(=O)N[C@@H](CCCNC(=N)N)C(=O)N[C@@H](CCCCN)C(=O)N[C@@H](CCCNC(=N)N)C(=O)N[C@@H](CC(N)=O)C(=O)N[C@@H](CC(N)=O)C(=O)N[C@@H](CO)C(=O)N[C@@H](CCCNC(=N)N)C(=O)N[C@@H](CC(C)C)C(=O)NCC(=O)N[C@@H](CC(N)=O)C(=O)NCC(=O)N[C@H](C(=O)N[C@@H](CC(C)C)C(=O)N[C@@H](Cc1ccc(O)cc1)C(=O)N[C@@H](C)C(=O)N[C@@H](CO)C(=O)N[C@H](C(N)=O)C(C)C)C(C)C)C(C)C		48 h, 1% FBS		TGI	1.05 ± 0.1 µM
CCn1c(-c2ccccc2)cs/c1=N/N=C(\C)c1ccccn1	cell growth or viability, SRB	100 µg/mL, 48 h		inhibition	53.7%
insulin human	glycogen synthesis, agonist, [14C]glucose incorporation	0% HSA		EC50	0.0122 µM
CCCCCCCCCCCCCCCC(=O)N[C@@H](CCCNC(=N)N)C(=O)N[C@@H](CCC(N)=O)C(=O)N1CCC[C@H]1C(=O)N[C@@H](CC(=O)O)C(=O)NCC(=O)N1CCC[C@H]1C(=O)N[C@@H](CC(C)C)C(=O)NCC(=O)N1CCC[C@H]1C(=O)N[C@@H](CC(C)C)C(=O)N[C@@H](Cc1ccc(O)cc1)C(N)=O		48 h, 1% FBS		TGI	0.4 ± 0.05 µM
NCCC(=O)Nc1ccccc1/N=c1\cc(-c2ccc3nc(N)oc3c2)oc2ccc(F)cc12	cell growth or viability, CCK-8	1 µM		inhibition	> 70%
NS(=O)(=O)c1ccc(NC(=O)CNNc2nc3ccccc3c(=O)n2-c2ccccc2)cc1	annexin V/PI staining	2.5 µM, 24 h, Total apoptosis		apoptotic cells	19.3%
Cc1c(C)c2c(c(C)c1OCc1ccccc1)CCC(C)(C(=O)NN=C1C(=O)N(C)c3ccc(Cl)cc31)O2 (stereo not shown)	cell growth or viability, SRB	48 h		GI50	77.9 µM
COc1ccc(/C=C2/S/C(=N/N=C(\C)c3ccccn3)NC2=O)cc1OC	cell growth or viability, SRB	100 µg/mL, 48 h		inhibition	65.4%
[Au(mba)(PPh3)]	PrestoBlue viability	72 h		EC50	2.4 µM and 2.36 µM
CN(C)C(=O)c1cc2cnc(Nc3ccc(N4CCNCC4)cn3)nc2n1C1CCCC1	item: phospho-pRb	up to 3.16 µM		time to cell cycle re-entry	≤ 48 h
CCn1c(C)cs/c1=N/N=C(\C)c1ccccn1	cell growth or viability, SRB	100 µg/mL, 48 h		inhibition	70.6%
COc1cccc2c1C(=O)c1c(O)c3c(c(O)c1C2=O)C[C@@](O)(C(=O)CO)C[C@@H]3O[C@H]1C[C@H](N)[C@H](O)[C@H](C)O1	cell growth or viability, SRB	48 h		GI50	< 0.1 µM
CCCCCCCCCCCCCCCC(=O)N[C@@H](CCCNC(=N)N)C(=O)N[C@@H](CC(N)=O)C(=O)N[C@@H](CC(N)=O)C(=O)N[C@@H](CO)C(=O)N[C@@H](CCCNC(=N)N)C(=O)N[C@@H](CC(C)C)C(=O)NCC(=O)N[C@@H](CC(N)=O)C(=O)NCC(=O)N[C@H](C(=O)N[C@@H](CC(C)C)C(=O)N[C@@H](Cc1ccc(O)cc1)C(N)=O)C(C)C		48 h, 1% FBS		TGI	0.5 ± 0.02 µM
insulin icodec	DNA synthesis, agonist, 3H-thymidine incorporation	HSA 0%		EC50	0.625 µM
O=C(CC1Sc2ccccc2NC1=O)c1ccc(Cl)cc1 (stereo not shown)	propidium iodide flow cytometry	1.29 µM, 24 h		G0/G1 phase cells	76.2%
CCN1C(=O)/C(=C\c2ccc(Cl)cc2)S/C1=N/N=C(\C)c1ccccn1	cell growth or viability, SRB	100 µg/mL, 48 h		inhibition	59.5%
CCOC(=O)c1ccc(N2C(=O)C(c3ccccc3)N(c3ccccc3)C2=O)cc1 (stereo not shown)	Annexin V/PI flow cytometry	IC50 concentration, 72 h		apoptotic cells	49.4%
O=C(CNC1CCCCC1)Nc1nc2ccccc2s1	cell growth or viability, MTT	100 µM, 72 h		inhibition	34.4%

Substance	assay	setting	how to read	measurement	value
Cc1c(C)c2c(c(C)c1O)CCC(C)(C(=O)NN=C1C(=O)N(C)c3cc(Cl)ccc31)O2 (stereo not shown)	cell growth or viability, SRB	48 h		GI50	> 100 µM
N#CC(C(=O)Nc1nnc(NC(=O)c2ccccc2)s1)=C1Nc2ccccc2O1	cell growth or viability, MTT	48 h		IC50	< 10 µM
C#C[C@@]1(O)[C@@H](CO)O[C@@H](n2cc(I)c3c(N)ncnc32)[C@@H]1O	cell growth or viability, SRB	48 h		GI50	0.01 to 0.014 µM
CCCCCCCCCCCCCCCC(=O)N[C@@H](Cc1c[nH]cn1)C(=O)N[C@@H](CCCNC(=N)N)C(=O)N[C@@H](CCCCN)C(=O)N[C@@H](CCCNC(=N)N)C(=O)N[C@@H](CC(N)=O)C(=O)N[C@@H](CC(N)=O)C(=O)N[C@@H](CO)C(=O)N[C@@H](CCCNC(=N)N)C(=O)N[C@@H](CC(C)C)C(=O)NCC(=O)N[C@@H](CC(N)=O)C(=O)NCC(=O)N[C@H](C(=O)N[C@@H](CC(C)C)C(=O)N[C@@H](Cc1ccc(O)cc1)C(=O)N[C@@H](C)C(=O)N[C@@H](CO)C(N)=O)C(C)C		48 h, 1% FBS		TGI	4.1 ± 0.3 µM
CCn1c(C)c(/N=N/c2ccc(C)cc2)s/c1=N/N=C(\C)c1ccccn1	cell growth or viability, SRB	100 µg/mL, 48 h		inhibition	52.9%
CCCCCCCCCCCCCCCC(=O)N[C@@H](Cc1c[nH]cn1)C(=O)N[C@@H](CCCNC(=N)N)C(=O)N[C@@H](CCCCN)C(=O)N[C@@H](CCCNC(=N)N)C(=O)N[C@@H](CC(N)=O)C(=O)N[C@@H](CC(N)=O)C(=O)N[C@@H](CO)C(=O)N[C@@H](CCCNC(=N)N)C(=O)N[C@@H](CC(C)C)C(=O)NCC(=O)N[C@@H](CC(N)=O)C(=O)NCC(=O)N[C@H](C(=O)N[C@@H](CC(C)C)C(=O)N[C@@H](Cc1ccc(O)cc1)C(=O)N[C@@H](C)C(=O)N[C@@H](CO)C(=O)N[C@H](C(N)=O)C(C)C)C(C)C		48 h, 1% FBS		TGI	1.45 ± 0.3 µM
O=C(CNc1ccc(F)cc1)Nc1nc2ccccc2s1	cell growth or viability, MTT	100 µM, 72 h		inhibition	18.3%
CC/C(=C(\c1ccc(O)cc1)c1ccc(OCCNC)cc1)c1ccccc1	antagonist, item: PGR	1 µM, 24 h, added: estradiol 10 nM	baseline: estradiol alone	mRNA level	10%
O=C(CNc1ccc(S(=O)(=O)Nc2ccccn2)cc1)Nc1nc2ccccc2s1	cell growth or viability, MTT	100 µM, 72 h		inhibition	15.1%
CCCCCCCCCCCCCCCC(=O)N[C@@H](CO)C(=O)N[C@@H](CCCNC(=N)N)C(=O)N[C@@H](CC(C)C)C(=O)NCC(=O)N[C@@H](CC(N)=O)C(=O)NCC(=O)N[C@H](C(=O)N[C@@H](CC(C)C)C(=O)N[C@@H](Cc1ccc(O)cc1)C(N)=O)C(C)C		48 h, 1% FBS		TGI	2 ± 0.1 µM
O=C(CNc1ccc([N+](=O)[O-])cc1)Nc1nc2ccccc2s1	cell growth or viability, MTT	100 µM, 72 h		inhibition	32%
Cc1c(C)c2c(c(C)c1O)CCC(C)(C(=O)NN=C1C(=O)N(C)c3ccccc31)O2 (stereo not shown)	cell growth or viability, SRB	48 h		GI50	> 100 µM
C/C(=N\N=c1/[nH]c(C)c(/N=N/c2ccc(C)cc2)s1)c1ccccn1	cell growth or viability, SRB	100 µg/mL, 48 h		inhibition	67.6%
COC(=O)c1ccc(NC(=O)CNNc2nc3ccccc3c(=O)n2-c2ccccc2)cc1	annexin V/PI staining	2.5 µM, 24 h, Total apoptosis		apoptotic cells	26.6%
O=C(CN1CCN(c2ccccc2O)CC1)Nc1nc2ccccc2s1	cell growth or viability, MTT	100 µM, 72 h		inhibition	54.1%
C[C@]12CC[C@@H]3c4ccc(O)cc4C[C@@H](CCCCCCCCC[S+]([O-])CCCC(F)(F)C(F)(F)F)[C@H]3[C@@H]1CC[C@@H]2O (stereo partly shown)		concentration not given, colony formation and migration		cell proliferation	inhibited
CC(C)(C)c1ccc(CN2CCN(C(c3ccccc3)c3ccc(Cl)cc3)CC2)cc1 (stereo not shown)	lipid droplet formation, Nile Red staining	72 h		EC50	19 µM
O=C(CN1CCN(c2cccc(O)c2)CC1)Nc1nc2ccccc2s1	cell growth or viability, MTT	100 µM, 72 h		inhibition	4.5%
Cc1c(C)c2c(c(C)c1OCc1ccccc1)CCC(C)(C(=O)NN=C1C(=O)N(C)c3ccccc31)O2 (stereo not shown)	cell growth or viability, SRB	48 h		GI50	> 100 µM
C[C@@H]1O[C@@H](O[C@@H]2[C@@H](O)[C@H](OCCc3ccc(O)c(O)c3)O[C@H](CO)[C@H]2OC(=O)/C=C/c2ccc(O)c(O)c2)[C@H](O)[C@H](O)[C@H]1O	caspase-3/7 flow cytometry, item: early plus late apoptosis	IC50, 24 h		apoptotic cells	26.9%
Cc1c(C)c2c(c(C)c1O)CCC(C)(C(=O)NN=C1C(=O)Nc3cc(Cl)ccc31)O2 (stereo not shown)	cell growth or viability, SRB	48 h		GI50	46.9 µM
COc1ccc(/C=C2/S/C(=N/N=C(\C)c3ccccn3)NC2=O)cc1	cell growth or viability, SRB	100 µg/mL, 48 h		inhibition	51.5%
N=C(N)NS(=O)(=O)c1ccc(NCC(=O)Nc2nc3ccccc3s2)cc1	cell growth or viability, MTT	100 µM, 72 h		inhibition	10.2%
